Measurements from different studies.
A part holds a random share of what one study measured. Positions count from the first letter of the parent shown.

Series 1 — target: inorganic phosphate, free oxyanion; technique: microfluidic competitive inhibition; matrix: in vitro, cell-free expressed; concentration: not given; direction: lower = stronger binding
Notes: derived from inhibition constants, unchanged parent 615000 nM
Parent: PafA, mature enzyme, eGFP fusion (Elizabethkingia meningoseptica, UniProt Q9KJX5); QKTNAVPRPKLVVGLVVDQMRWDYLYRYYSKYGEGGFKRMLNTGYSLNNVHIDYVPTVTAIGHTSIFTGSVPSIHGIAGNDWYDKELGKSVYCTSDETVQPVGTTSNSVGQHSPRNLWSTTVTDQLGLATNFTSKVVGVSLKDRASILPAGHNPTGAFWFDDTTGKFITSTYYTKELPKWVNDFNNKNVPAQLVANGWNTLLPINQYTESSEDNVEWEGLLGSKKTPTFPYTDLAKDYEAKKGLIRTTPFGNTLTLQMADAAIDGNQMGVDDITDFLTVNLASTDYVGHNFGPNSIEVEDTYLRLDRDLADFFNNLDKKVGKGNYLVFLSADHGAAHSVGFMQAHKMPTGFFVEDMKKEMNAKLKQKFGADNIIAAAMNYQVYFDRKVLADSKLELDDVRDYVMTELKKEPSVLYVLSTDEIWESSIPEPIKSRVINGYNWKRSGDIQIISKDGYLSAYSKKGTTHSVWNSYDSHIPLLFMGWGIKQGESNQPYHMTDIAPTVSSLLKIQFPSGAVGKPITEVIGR
`R115V`: “phosphate dissociation constant” 698 µM.
For `N186V`, “phosphate dissociation constant” read 641 µM.
For `D237V`, “phosphate dissociation constant” read 507 µM.
For `A259V`, “phosphate dissociation constant” read 611 µM.
Under “phosphate dissociation constant”, `N324V` is recorded as 529 µM.
For `L254V`, “phosphate dissociation constant” read 646 µM.
`L281V`: “phosphate dissociation constant” 768 µM.
`T57G`: “phosphate dissociation constant” 92.6 µM.
For `A335G`, “phosphate dissociation constant” read 580 µM.
`D18G` — result for “phosphate dissociation constant”: less than 131 µM.
Under “phosphate dissociation constant”, `V189A` is recorded as 696 µM.
`P154G`: “phosphate dissociation constant” 436 µM.
`G438A`: “phosphate dissociation constant” 297 µM.
`F184G` — result for “phosphate dissociation constant”: 579 µM.
`D260G` — result for “phosphate dissociation constant”: 718 µM.
For `T98V`, “phosphate dissociation constant” read 601 µM.
For `D391G`, “phosphate dissociation constant” read 649 µM.
`I427G`: “phosphate dissociation constant” 345 µM.
`V516G` — result for “phosphate dissociation constant”: 397 µM.

Series 2 — target: CRIPT, C-terminal peptide; technique: DHFR complementation, deep sequencing; matrix: yeast; baseline: wild type; direction: higher = weaker binding
Notes: single substitutions, model-inferred values
Parent: ERBIN, PDZ domain 1 (human); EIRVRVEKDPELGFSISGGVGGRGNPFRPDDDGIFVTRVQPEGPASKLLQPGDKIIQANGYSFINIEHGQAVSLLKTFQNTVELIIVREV; partner TKNYKQTSV
For `I34Q`, “binding free energy change” read 0.861 kcal/mol.
Under “binding free energy change”, `E7L` is recorded as 0.0466 kcal/mol.
Under “binding free energy change”, `I86A` is recorded as 0.0883 kcal/mol.
`R38G`: “binding free energy change” 0.253 kcal/mol.
`R5C`: “binding free energy change” 0.0644 kcal/mol.
`I56W`: “binding free energy change” 0.0715 kcal/mol.
`V39W`: “binding free energy change” 0.546 kcal/mol.
Under “binding free energy change”, `G69E` is recorded as -0.803 kcal/mol.

Series 3 — technique: RNA Bind-n-Seq; molecule type: RNA; matrix: in vitro; concentration: 20 nM; notes: 6-mer, flanks averaged, single round; together with: 150 mM KCl; baseline: input library; direction: higher = stronger binding
Target: TAR DNA-binding protein 43, full length, His tag (TARDBP, Homo sapiens, UniProt Q13148, residues 1-414)
For `CAUAAC`, “6-mer enrichment (R)” read 0.631.
`UCAGAC` — result for “6-mer enrichment (R)”: 0.618.
For `GGGGUG`, “6-mer enrichment (R)” read 7.34.
`CUACAA`: “6-mer enrichment (R)” 0.634.
`AGCCAA` — result for “6-mer enrichment (R)”: 0.711.
`CCCGUC` — result for “6-mer enrichment (R)”: 0.598.
Under “6-mer enrichment (R)”, `GACAUU` is recorded as 0.647.
Under “6-mer enrichment (R)”, `GUCUGA` is recorded as 0.816.

Series 4 — effect on: phage display binding; technique: phage display panning NGS; molecule type: peptide; baseline: OGT-panned over input library
Target: UDP-N-acetylglucosamine--peptide N-acetylglucosaminyltransferase 110 kDa subunit (OGT, Homo sapiens, UniProt O15294)
Sequence of UniProt O15294 (whole entry, looked up): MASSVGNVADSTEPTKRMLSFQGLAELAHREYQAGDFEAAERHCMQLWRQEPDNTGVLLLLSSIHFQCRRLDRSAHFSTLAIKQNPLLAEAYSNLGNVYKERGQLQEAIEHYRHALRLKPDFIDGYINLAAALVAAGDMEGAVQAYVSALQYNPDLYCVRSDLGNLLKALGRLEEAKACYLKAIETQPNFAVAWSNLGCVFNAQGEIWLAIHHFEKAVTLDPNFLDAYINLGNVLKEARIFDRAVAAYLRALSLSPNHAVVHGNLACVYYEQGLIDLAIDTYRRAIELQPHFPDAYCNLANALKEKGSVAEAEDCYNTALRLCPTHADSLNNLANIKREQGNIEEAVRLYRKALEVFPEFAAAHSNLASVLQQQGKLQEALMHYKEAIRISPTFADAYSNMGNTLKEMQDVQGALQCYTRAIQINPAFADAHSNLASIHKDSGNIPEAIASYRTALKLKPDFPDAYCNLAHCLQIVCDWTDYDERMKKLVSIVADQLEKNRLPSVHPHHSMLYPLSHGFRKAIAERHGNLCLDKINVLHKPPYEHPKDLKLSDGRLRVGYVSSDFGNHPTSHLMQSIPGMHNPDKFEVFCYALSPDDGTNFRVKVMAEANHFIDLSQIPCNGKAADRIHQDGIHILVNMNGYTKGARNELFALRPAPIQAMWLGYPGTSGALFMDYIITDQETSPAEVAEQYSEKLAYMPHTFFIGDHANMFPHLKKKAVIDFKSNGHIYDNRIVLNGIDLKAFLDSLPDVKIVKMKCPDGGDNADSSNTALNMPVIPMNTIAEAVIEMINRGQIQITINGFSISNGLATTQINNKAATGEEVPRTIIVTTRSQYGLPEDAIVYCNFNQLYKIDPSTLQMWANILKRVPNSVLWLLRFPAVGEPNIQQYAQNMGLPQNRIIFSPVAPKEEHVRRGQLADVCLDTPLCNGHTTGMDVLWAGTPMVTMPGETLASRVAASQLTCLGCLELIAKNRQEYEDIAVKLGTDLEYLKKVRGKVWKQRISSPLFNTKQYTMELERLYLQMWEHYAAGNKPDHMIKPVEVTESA
For `WPSVMHHHHVQQTAA`, “log2 fold enrichment” read 4.21.
`TYLHHGDVVDMTSHV`: “log2 fold enrichment” 3.12.
`SAERHMHWPWNHRHS`: “log2 fold enrichment” 2.71.
Under “log2 fold enrichment”, `DHDHLWQRLHDGHTS` is recorded as 2.81.
Under “log2 fold enrichment”, `SMAWHHPHGYHWPQA` is recorded as 2.32.

Excerpt of the above (series 3):
For `GGGGUG`, “6-mer enrichment (R)” read 7.34.
`CUACAA`: “6-mer enrichment (R)” 0.634.
`AGCCAA` — result for “6-mer enrichment (R)”: 0.711.
`CCCGUC` — result for “6-mer enrichment (R)”: 0.598.
Under “6-mer enrichment (R)”, `GACAUU` is recorded as 0.647.
